Values quoted from earlier work as cited in several papers.
Protocols differ between the studies behind these lines.
Chain of UniProt P10635 (whole entry, looked up): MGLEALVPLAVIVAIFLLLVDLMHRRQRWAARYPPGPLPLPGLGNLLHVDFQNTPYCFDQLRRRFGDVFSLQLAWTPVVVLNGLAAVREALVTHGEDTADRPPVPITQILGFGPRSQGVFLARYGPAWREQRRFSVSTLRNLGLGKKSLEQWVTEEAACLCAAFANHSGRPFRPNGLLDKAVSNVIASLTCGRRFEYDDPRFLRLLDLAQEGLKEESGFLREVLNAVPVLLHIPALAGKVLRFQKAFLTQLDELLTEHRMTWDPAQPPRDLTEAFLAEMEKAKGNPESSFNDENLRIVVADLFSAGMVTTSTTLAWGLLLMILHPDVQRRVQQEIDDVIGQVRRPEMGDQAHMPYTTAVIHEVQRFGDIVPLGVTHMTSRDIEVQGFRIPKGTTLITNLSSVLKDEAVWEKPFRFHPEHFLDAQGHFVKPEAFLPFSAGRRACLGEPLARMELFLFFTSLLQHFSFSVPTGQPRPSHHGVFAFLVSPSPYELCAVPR

Structure (SMILES) | target | test | system | conditions | scale | quantity | value
COc1ccc(CN(C(=O)[C@@H](N)Cc2c(C)cc(C(N)=O)cc2C)[C@@H](C)c2nc(-c3ccccc3)c[nH]2)cc1C(=O)O | P-glycoprotein | transport, inhibitor | – | 162-fold plasma level at 100 mg | – | inhibition | 6.25%
CN([11CH3])C(=O)C(CCN1CCC(O)(c2ccc(Cl)cc2)CC1)(c1ccccc1)c1ccccc1 | P-glycoprotein, human | item: 11C radioactivity brain to plasma | healthy human volunteers | intravenous, dose not given, with: ciclosporin 10 mg/kg intravenous infusion | – | brain distribution increase | 110%
Cc1ncc2n1-c1ccc(Cl)cc1C(c1ccccc1F)=NC2 | CYP3A hepatic | – | healthy human, fed | intravenous, 0.025 mg/kg, cocktail, least squares mean, with: simeprevir 150 mg | relative to: with over without simeprevir | AUC(0-last) ratio | 1.1
COc1ccc2c(c1)[C@]13CCCC[C@@H]1[C@H](C2)N(C)CC3 | Cytochrome P450 2D6 (CYP2D6, Homo sapiens, UniProt P10635) | – | human extensive metabolizers | with: quinidine | – | fraction metabolized | 0.98
COc1ccsc1CNCC[C@@]1(c2ccccn2)CCOC2(CCCC2)C1 | CYP2D6 | – | human CYP2D6 poor metabolizers | – | relative to: extensive metabolizers | clearance | ~50%
CCN1C[C@]2(COC)[C@H](O)C[C@H](OC)[C@@]34[C@@H]5C[C@@]6(O)[C@H](OC(=O)c7ccccc7)[C@@H]5[C@@](OC(C)=O)([C@@H]([C@H](OC)[C@H]23)[C@@H]14)[C@@H](O)[C@@H]6OC | OCT2 | transport, inhibitor | – | with: tetraethylammonium | – | IC50 | 60 µM
CNC(C)Cc1ccc2c(c1)OCO2 (centres unmarked) | CYP2D6 | inhibitor | human liver microsomes | – | – | Ki | 8.8 to 45 µM
COc1ccc2c(c1)[C@]13CCCC[C@@H]1[C@H](C2)N(C)CC3 | CYP2D6 | item: dextromethorphan to dextrorphan ratio | human | 30 mg, with: simeprevir 150 mg | relative to: with over without simeprevir | metabolic ratio | 0.99

Excerpt of the above:
Structure (SMILES) | target | test | system | conditions | scale | quantity | value
COc1ccc2c(c1)[C@]13CCCC[C@@H]1[C@H](C2)N(C)CC3 | CYP2D6 | item: dextromethorphan to dextrorphan ratio | human | 30 mg, with: simeprevir 150 mg | relative to: with over without simeprevir | metabolic ratio | 0.99
